# Measured values gathered from unrelated publications.
# A part holds a random share of what one study measured.
# Chain of UniProt P29597 (whole entry, looked up): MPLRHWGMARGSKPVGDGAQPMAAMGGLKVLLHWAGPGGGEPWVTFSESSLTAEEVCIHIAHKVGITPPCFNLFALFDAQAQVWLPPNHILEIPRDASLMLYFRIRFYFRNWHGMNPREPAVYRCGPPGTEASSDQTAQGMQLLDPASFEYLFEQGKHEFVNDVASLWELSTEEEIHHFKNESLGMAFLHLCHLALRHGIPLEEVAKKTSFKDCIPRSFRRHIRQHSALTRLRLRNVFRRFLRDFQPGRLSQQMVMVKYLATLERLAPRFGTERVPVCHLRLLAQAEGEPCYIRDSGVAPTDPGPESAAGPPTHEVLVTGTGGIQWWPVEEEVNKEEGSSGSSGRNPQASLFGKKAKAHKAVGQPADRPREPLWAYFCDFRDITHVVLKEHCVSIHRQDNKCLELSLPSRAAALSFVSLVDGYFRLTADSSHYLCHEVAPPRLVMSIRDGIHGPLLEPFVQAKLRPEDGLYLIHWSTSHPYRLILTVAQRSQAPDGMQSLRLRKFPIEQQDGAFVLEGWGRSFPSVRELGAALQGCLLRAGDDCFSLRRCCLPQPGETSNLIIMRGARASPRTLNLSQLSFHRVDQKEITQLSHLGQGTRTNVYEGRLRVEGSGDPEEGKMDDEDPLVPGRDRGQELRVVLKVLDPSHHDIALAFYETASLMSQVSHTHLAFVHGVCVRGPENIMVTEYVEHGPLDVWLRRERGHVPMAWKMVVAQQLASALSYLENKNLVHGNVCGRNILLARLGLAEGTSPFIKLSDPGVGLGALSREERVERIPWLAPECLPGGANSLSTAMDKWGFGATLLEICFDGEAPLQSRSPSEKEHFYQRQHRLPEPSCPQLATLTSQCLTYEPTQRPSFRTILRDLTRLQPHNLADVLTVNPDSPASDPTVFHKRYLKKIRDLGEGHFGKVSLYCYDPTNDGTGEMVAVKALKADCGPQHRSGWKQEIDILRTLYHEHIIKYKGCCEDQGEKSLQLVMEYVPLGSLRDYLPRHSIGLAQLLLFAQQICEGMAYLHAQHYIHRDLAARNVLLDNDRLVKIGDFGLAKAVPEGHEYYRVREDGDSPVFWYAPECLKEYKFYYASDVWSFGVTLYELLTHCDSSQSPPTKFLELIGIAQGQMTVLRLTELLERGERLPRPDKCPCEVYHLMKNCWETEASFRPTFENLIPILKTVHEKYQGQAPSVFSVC

# Block 1
# Target: Sal-like protein 4, full length isoform B (SALL4, Homo sapiens, UniProt Q9UJQ4-2, residues 1-616)
# Method: universal PBM
# Molecule type: double-stranded DNA, one strand shown
# Matrix: in vitro
# Concentration: not given
# Notes: 8-mer, flanks averaged, mean of replicates
# Direction: higher = stronger binding
Oligonucleotide,E-score
AGGCCAGC,-0.274
AATAACCA,0.337
TATCCACA,0.167
AAAAATTA,0.407
AGCCTCCG,-0.361
CAAGAAAA,0.147
CGCGGTGC,-0.363
GTGCCGTA,-0.0396

# Block 2
# Target: Sox-I, HMG box (Salpingoeca helianthica)
# Method: Spec-seq
# Molecule type: double-stranded DNA, one strand shown
# Matrix: in vitro
# Concentration: not given
# Notes: whole probe, mean of replicates
# Baseline: not given
# Direction: lower = stronger binding
# Shared flanks, not repeated: GAGTCGTCTCGTCAGCAC … CCGTAGAGCACTCAGGTC
# Target sequence (chain): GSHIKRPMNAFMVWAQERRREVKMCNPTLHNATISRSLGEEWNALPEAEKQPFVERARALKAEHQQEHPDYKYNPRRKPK
Oligonucleotide,relative binding energy [ln ratio]
CATATAC,0.324
AATAGTT,-2.19
CATACAT,0.142
CATAAAG,-0.503
CGCGGTT,1.08
CATTAAC,0.213
CATATTC,0.312
TTCGGTT,0.838

# Block 3
# Target: Centromere-binding protein 1, full length, N-terminal tag (CBF1, Saccharomyces cerevisiae, UniProt P17106, residues 1-351)
# Chain of UniProt P17106 (whole entry, looked up): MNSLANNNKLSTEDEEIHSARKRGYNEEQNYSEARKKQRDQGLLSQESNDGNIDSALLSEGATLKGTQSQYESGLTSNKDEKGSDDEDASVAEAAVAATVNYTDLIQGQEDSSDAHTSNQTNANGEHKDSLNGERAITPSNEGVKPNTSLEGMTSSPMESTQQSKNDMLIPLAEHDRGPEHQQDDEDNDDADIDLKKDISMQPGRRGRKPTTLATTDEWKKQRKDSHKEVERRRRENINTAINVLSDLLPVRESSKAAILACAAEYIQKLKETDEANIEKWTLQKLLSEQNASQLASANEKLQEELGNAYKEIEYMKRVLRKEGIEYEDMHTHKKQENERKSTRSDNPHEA
# Method: protein-binding microarray
# Molecule type: double-stranded DNA, one strand shown
# Matrix: in vitro
# Concentration: 0.8 µM
# Notes: whole 60-bp probe, no competitor
# Direction: higher = stronger binding
# Shared flanks, not repeated: … GTCTTGATTCGCTTGACGCTGCTG
Oligonucleotide,fluorescence intensity [a.u.]
GAACATCCACTAAATCTGATGATTGTTTCTTAATAG,490
CTAATTCTCATTTTTAACGTGTCTTTTCTTCAATTC,548
GAACAAACACCCTTCCACGGGAAGCGCCAGCCGTAG,491
GAAATTGTACCTGATCATGCTAGACAAATAACGTAG,638
CTAAGGAAAAAACCCGTGATTACTAAAGGCATATTC,1800
GAATATATAGTCCAAACCGTGACAACTATGCAGTAG,630
CCTAACTACTATACACATGTTTGATAGCTTCGTACA,595
TGTACGAAGCTATGTGACCTGACTATAGTAGTTAGG,583

# Other studies, line by line
SMILES,target,test,setting,scale,quantity,result
CCN(CC)CCNC(=O)c1c(C)[nH]c(/C=C2\C(=O)Nc3ccc(Cl)cc32)c1C,"Non-receptor tyrosine-protein kinase TYK2 (TYK2, Homo sapiens, UniProt P29597)","enzyme activity, inhibitor",0.5 µM,baseline: control,remaining activity,30.8%

# A few entries again (block 2):
Oligonucleotide,relative binding energy [ln ratio]
CATATTC,0.312
TTCGGTT,0.838
